Results of several laboratories.
A part holds a random share of what one study measured.

Study 1 — technique: protein-binding microarray; molecule type: double-stranded DNA, one strand shown; matrix: in vitro; concentration: 250 nM; setting: 60-bp whole probe; together with: salmon DNA 0.4 mg/ml; relative to: random background probes; direction: higher = stronger binding; constant ends, left off below: GCCTAGCAC … GTCTTGATTCGCTTGACGCTGCTG
Target: Interferon regulatory factor 7, full length, phosphomimetic (IRF7, Homo sapiens, UniProt Q92985, residues 1-503, S101K/S471D/S472D/S475D/S476D/S477D/S483D/S484D/S487D)
Sequence of UniProt Q92985 (whole entry, unmodified, looked up): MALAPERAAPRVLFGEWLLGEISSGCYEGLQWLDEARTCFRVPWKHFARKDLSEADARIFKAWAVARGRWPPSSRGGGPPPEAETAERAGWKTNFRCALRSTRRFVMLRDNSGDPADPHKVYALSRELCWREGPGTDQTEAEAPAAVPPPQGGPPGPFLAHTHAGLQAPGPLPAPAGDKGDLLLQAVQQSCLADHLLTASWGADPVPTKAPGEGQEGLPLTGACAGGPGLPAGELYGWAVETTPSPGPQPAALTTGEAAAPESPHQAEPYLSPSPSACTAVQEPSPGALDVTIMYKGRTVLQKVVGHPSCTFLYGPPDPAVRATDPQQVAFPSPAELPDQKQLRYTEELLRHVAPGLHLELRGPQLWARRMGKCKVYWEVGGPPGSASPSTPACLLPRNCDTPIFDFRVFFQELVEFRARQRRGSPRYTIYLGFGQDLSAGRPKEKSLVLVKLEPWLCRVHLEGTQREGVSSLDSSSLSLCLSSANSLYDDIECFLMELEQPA
Sequence | log fluorescence [z-score]
GCCGAACTGAGTTTCGAGACGTGCTAG | 3.52
TCATTTATGTACTCTCTCACTGTGCTA | 1.07
TCAGATTTCAGTTCCGATTAGTGCTAG | 1.81
TTTCAGCTGTTTTTCTCACCGTGCTAG | 0.253
TTCACTTTCCAAAACATGAAGTGCTAG | 0.954
TTAGGTTCCGTTTTCCTTTAGTGCTAG | 8.53
TTAGATCTCCTTCTCCTTTAGTGCTAG | 0.267
TCATGCTTCAGGTTTACCACTGTGCTA | -0.496

Study 2 — technique: protein binding microarray; molecule type: double-stranded DNA, one strand shown; matrix: in vitro; concentration: not given; relative to: not given; direction: higher = stronger binding
Target: Histone acetyltransferase KAT6A, winged helix 1, GST fusion (KAT6A, Homo sapiens, UniProt Q92794, residues 1-85)
Setting: 8-mer, flanks averaged, mean of 2 arrays, mostly near background
Residues (chain): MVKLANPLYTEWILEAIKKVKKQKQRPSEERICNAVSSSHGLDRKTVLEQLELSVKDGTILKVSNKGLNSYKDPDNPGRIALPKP
Sequence | E-score
ACTAGAGT | -0.0425
CATCACTA | -0.278
ACGTACCC | 0.157
CGGCGTAA | 0.319
ACAGTGCA | -0.0816
CAACAAAA | -0.143
GCTAAAAC | 0.0734
ATCAGGGG | -0.155

Study 3 — cell line: HEK-293T/ACE2; concentration: concentration not given; time: 16 (unit not given); relative to: vehicle
Compound | viability
CC[C@@H]1/C=C(\C)C[C@H](C)C[C@H](OC)[C@H]2O[C@@](O)(C(=O)C(=O)N3CCCC[C@H]3C(=O)O[C@H](/C(C)=C/[C@@H]3CC[C@H](Cl)[C@H](OC)C3)[C@H](C)[C@@H](O)CC1=O)[C@H](C)C[C@@H]2OC | 102%
CN(C)CC/C=C1/c2ccccc2Sc2ccc(Cl)cc21 | 99.8%
CCCCC(=O)O[C@H]1CC[C@H]2[C@@H]3CCc4cc(O)ccc4[C@H]3CC[C@]12C | 104%

Study 4 — action: inhibitor; concentration: 20 µM
Target: Replicase polyprotein 1ab, nsp13 helicase (rep, Severe acute respiratory syndrome coronavirus 2, UniProt P0DTD1)
SMILES | inhibition
CC(C)N(CCC(C(N)=O)(c1ccccc1)c1ccccn1)C(C)C (stereo not drawn) | 0.2%
CC(C)C[C@@H]1NC(=O)[C@@H](C(C)C)NC(=O)[C@@H]2CCCN2C(=O)[C@@H](CC(=O)O)NC(=O)[C@@H](Cc2c[nH]c3ccccc23)NC1=O | 9.02%
O=[N+]([O-])c1ccc(O)c2ncccc12 | 7.96%
CNC(=O)c1ccc2c(c1)S(=O)(=O)c1ccccc1C2=O | 23.4%
CC(C)=CCC/C(C)=C/CC/C(C)=C/C=C/C(C)=C/C(=O)O | 20.5%
COc1cccc(OC)c1OCCNCC1COc2ccccc2O1 (stereo not drawn) | 8.62%
CCCCC[C@H](O)/C=C/[C@H]1[C@H](O)CC(=O)[C@@H]1C/C=C\CCCC(=O)O | 0.95%
C=C1/C(=C\C=C2/CCC[C@]3(C)[C@@H]([C@H](C)CCCC(C)C)CC[C@@H]23)C[C@@H](O)C[C@@H]1O | 29.2%
CC(C)(C)c1cc(NC(=O)Nc2ccc(-c3cn4c(n3)sc3cc(OCCN5CCOCC5)ccc34)cc2)no1 | 8.17%
C#Cc1cccc(Nc2ncnc3cc4c(cc23)OCCOCCOCCO4)c1 | 5.73%
N#Cc1cc(F)cc(-c2nc(-c3ccc(F)cn3)no2)c1 | 10.8%
O=P(O)(NCCCl)NCCCl | 5.62%
Cc1c(I)c(=O)n(-c2ccccc2)n1C | 4.26%
O=c1ncn2nc(Sc3ccc(F)cc3F)ccc2c1-c1c(Cl)cccc1Cl | -3.7%
Nc1nc2ccc(OC(F)(F)F)cc2s1 | 1.46%
c1ccc2c(c1)Nc1ccccc1S2 | -2.49%
O=C(O)/C=C(/CC(=O)O)C(=O)O | 0.44%

Repeated from above (study 4):
SMILES | inhibition
O=c1ncn2nc(Sc3ccc(F)cc3F)ccc2c1-c1c(Cl)cccc1Cl | -3.7%
Nc1nc2ccc(OC(F)(F)F)cc2s1 | 1.46%
c1ccc2c(c1)Nc1ccccc1S2 | -2.49%
